# Experimental data from different studies.
# Lines come from different studies, so protocols differ. Numbers after ± are the reported error.
# Target: Induced myeloid leukemia cell differentiation protein Mcl-1 (MCL1, Homo sapiens, UniProt Q07820)
test,setting,measurement,value,Structure (SMILES)
"ligand displacement, FP",,IC50,71 nM,CC[C@H](C)[C@@H]1NC(=O)[C@H](CCCNC(=N)N)NC(=O)[C@H](CCCNC(=N)N)NC(=O)[C@H](CC(C)C)NC(=O)[C@@H](NC(=O)[C@H](C)NC(=O)[C@H](C)NC(C)=O)CSCc2ccc(cc2)-c2ccc(cc2)CSC[C@@H](C(=O)N[C@H](C(=O)N[C@@H](CC(N)=O)C(=O)N[C@@H](CC(C)C)C(=O)N[C@@H](CCCNC(=N)N)C(=O)N[C@@H](CCC(N)=O)C(=O)N[C@@H](CCCCN)C(=O)N[C@@H](CC(C)C)C(=O)N[C@@H](CC(C)C)C(=O)N[C@@H](CC(N)=O)C(N)=O)C(C)C)NC(=O)[C@H](CC(=O)O)NC(=O)CNC1=O
fluorescence anisotropy competition,"pH 7.50, together with: FITC-NOXA B peptide",IC50,27100 ± 1100 nM,CC(C)Oc1cc(NC(=O)[C@@H](Cc2ccccc2)NC(=O)c2ccc(N)c(OCc3ccccc3)c2)ccc1C(=O)NCC(=O)O
"binding, fluorescence anisotropy",,Kd,< 1 nM,CC[C@H](C)[C@H](NC(=O)[C@H](CCCNC(=N)N)NC(=O)[C@H](CO)NC(=O)[C@H](CC(C)C)NC(=O)[C@H](CCC(=O)O)NC(=O)[C@H](CCC(N)=O)NC(=O)[C@H](C)NC(=O)[C@@H](NC(=O)[C@H](Cc1c[nH]c2ccccc12)NC(=O)[C@@H](NC(=O)[C@H](CCC(=O)O)NC(=O)[C@@H]1CCCN1C(=O)[C@H](CCCNC(=N)N)NC(=O)c1ccc2c(c1)C(=O)OC21c2ccc(O)cc2Oc2cc(O)ccc21)[C@@H](C)CC)[C@@H](C)CC)C(=O)NCC(=O)N[C@@H](CC(=O)O)C(=O)N[C@@H](CCC(=O)O)C(=O)N[C@@H](Cc1ccccc1)C(=O)N[C@@H](CC(N)=O)C(=O)N[C@@H](C)C(=O)N[C@@H](Cc1ccc(O)cc1)C(=O)N[C@@H](Cc1ccc(O)cc1)C(=O)N[C@@H](C)C(=O)N[C@@H](CCCNC(=N)N)C(N)=O
"ligand displacement, FP",,IC50,72 nM,CC1=C(C2=C(C)C(=O)c3c(cc(O)c(O)c3C(C)C)C2=O)C(=O)c2cc(O)c(O)c(C(C)C)c2C1=O (racemic)
"ligand displacement, FP",,Ki,40000 nM,O=C(O)c1csc(C2COc3ccccc3O2)n1 (stereo not drawn)
competition SPR,"pH 7.4, together with: BimBH3 peptide",IC50,109 ± 1 nM,CC[C@H](C)[C@H](NC(C)=O)C(=O)N[C@H](CC(=O)N[C@H](C(=O)N[C@@H](C)C(=O)N[C@@H](CCC(N)=O)C(=O)N[C@@H](CCC(=O)O)CC(=O)N[C@@H](CC(C)C)C(=O)N[C@@H](CCCNC(=N)N)C(=O)N[C@@H](CCCNC(=N)N)C(=O)N[C@H](CC(=O)NCC(=O)N[C@@H](CC(=O)O)C(=O)N[C@@H](CCC(=O)O)C(=O)N[C@H](CC(=O)N[C@@H](CC(N)=O)C(=O)N[C@@H](C)C(=O)N[C@@H](Cc1ccc(O)cc1)C(=O)N[C@H](CC(N)=O)Cc1ccc(O)cc1)Cc1ccccc1)[C@@H](C)CC)[C@@H](C)CC)Cc1c[nH]c2ccccc12
"ligand displacement, FP",,IC50,49 nM,CC[C@H](C)[C@@H]1NC(=O)[C@H](CCCNC(=N)N)NC(=O)[C@H](CCCNC(=N)N)NC(=O)[C@H](CC(C)C)NC(=O)[C@@H](NC(=O)[C@H](C)NC(=O)[C@H](C)NC(C)=O)CSC/C=C/c2ccc(cc2)/C=C/CSC[C@@H](C(=O)N[C@H](C(=O)N[C@@H](CC(N)=O)C(=O)N[C@@H](CC(C)C)C(=O)N[C@@H](CCCNC(=N)N)C(=O)N[C@@H](CCC(N)=O)C(=O)N[C@@H](CCCCN)C(=O)N[C@@H](CC(C)C)C(=O)N[C@@H](CC(C)C)C(=O)N[C@@H](CC(N)=O)C(N)=O)C(C)C)NC(=O)[C@H](CC(=O)O)NC(=O)CNC1=O
"binding, fluorescence polarization","pH 7.8, 37 °C",Kd,> 1000 nM,CC[C@H](C)[C@H](NC(=O)[C@H](Cc1c[nH]c2ccccc12)NC(=O)[C@@H](NC(=O)[C@H](CCC(=O)O)NC(=O)[C@@H]1CCCN1C(=O)[C@H](CCCNC(=N)N)NC(C)=O)[C@@H](C)CC)C(=O)N[C@@H](C)C(=O)N[C@@H](CCC(N)=O)C(=O)N[C@@H](CCC(=O)O)C(=O)N[C@@H](CC(C)C)C(=O)N[C@@H](CCCNC(=N)N)C(=O)N[C@@H](CCCNC(=N)N)C(=O)N[C@@H](C)C(=O)NCC(=O)N[C@@H](CCCCN)C(=O)N[C@H](C(=O)N[C@@H](CC(C)C)C(=O)N[C@@H](CC(N)=O)C(=O)N[C@@H](C)C(=O)N[C@@H](Cc1ccc(O)cc1)C(=O)N[C@@H](Cc1ccc(O)cc1)C(=O)N[C@@H](C)C(=O)N[C@@H](CCCNC(=N)N)C(N)=O)C(C)C
fluorescence anisotropy competition,"pH 7.50, together with: FITC-NOXA B peptide",IC50,> 100000 nM,CC(C)Oc1cc(C(=O)NCC(=O)O)ccc1NC(=O)[C@H](Cc1ccccc1)NC(=O)c1ccc(N)c(OCc2ccccc2)c1
"ligand displacement, FP",,IC50,183 nM,CC[C@H](C)[C@@H]1NC(=O)[C@H](CCCNC(=N)N)NC(=O)[C@H](CCCNC(=N)N)NC(=O)[C@H](CC(C)C)NC(=O)[C@@H](NC(=O)[C@H](C)NC(=O)[C@H](C)NC(C)=O)CSCc2ccc(c(OC)c2)-c2ccc(cc2OC)CSC[C@@H](C(=O)N[C@H](C(=O)N[C@@H](CC(N)=O)C(=O)N[C@@H](CC(C)C)C(=O)N[C@@H](CCCNC(=N)N)C(=O)N[C@@H](CCC(N)=O)C(=O)N[C@@H](CCCCN)C(=O)N[C@@H](CC(C)C)C(=O)N[C@@H](CC(C)C)C(=O)N[C@@H](CC(N)=O)C(N)=O)C(C)C)NC(=O)[C@H](CC(=O)O)NC(=O)CNC1=O
competition SPR,"pH 7.4, together with: BimBH3 peptide",IC50,70 ± 7 nM,CC[C@H](C)[C@H](NC(C)=O)C(=O)N[C@H](CC(=O)N[C@H](C(=O)N[C@@H](C)C(=O)N[C@@H](CCC(N)=O)C(=O)N[C@@H](CCC(=O)O)CC(=O)N[C@@H](CC(C)C)C(=O)N[C@@H](CCCNC(=N)N)C(=O)N[C@@H](CCCNC(=N)N)CC(=O)N[C@H](C(=O)NCC(=O)N[C@@H](CC(=O)O)C(=O)N[C@@H](CCC(=O)O)CC(=O)N[C@@H](Cc1ccccc1)C(=O)N[C@@H](CC(N)=O)C(=O)N[C@@H](C)CC(=O)N[C@@H](Cc1ccc(O)cc1)C(=O)N[C@@H](Cc1ccc(O)cc1)C(N)=O)[C@@H](C)CC)[C@@H](C)CC)Cc1c[nH]c2ccccc12
"ligand displacement, TR-FRET",,IC50,> 1000 nM,CC1(C)CCC(CN2CCN(c3ccc(C(=O)NS(=O)(=O)c4ccc(NCC5COCCO5)c([N+](=O)[O-])c4)c(N4CCCOc5nc6[nH]ccc6cc54)c3)CC2)=C(c2ccc(Cl)cc2)C1 (stereo not drawn)
"ligand displacement, FP",,Ki,47000 nM,Cc1cccc2c1O[C@@H](c1nc(C(=O)O)cs1)CN2Cc1ccccc1
fluorescence anisotropy competition,"pH 7.50, together with: FITC-NOXA B peptide",IC50,24100 ± 1400 nM,CC(C)Oc1cc(NC(=O)[C@H](Cc2c[nH]c3ccccc23)NC(=O)c2ccc(N)c(OCc3ccccc3)c2)ccc1C(=O)NCC(=O)O
"ligand displacement, FP",,IC50,53 nM,CC1=C(C2=C(C)C(=O)c3c(cc(O)c(O)c3Cc3ccccc3)C2=O)C(=O)c2cc(O)c(O)c(Cc3ccccc3)c2C1=O (racemic)

# For quick reference, copied from above:
test,setting,measurement,value,Structure (SMILES)
"binding, fluorescence anisotropy",,Kd,< 1 nM,CC[C@H](C)[C@H](NC(=O)[C@H](CCCNC(=N)N)NC(=O)[C@H](CO)NC(=O)[C@H](CC(C)C)NC(=O)[C@H](CCC(=O)O)NC(=O)[C@H](CCC(N)=O)NC(=O)[C@H](C)NC(=O)[C@@H](NC(=O)[C@H](Cc1c[nH]c2ccccc12)NC(=O)[C@@H](NC(=O)[C@H](CCC(=O)O)NC(=O)[C@@H]1CCCN1C(=O)[C@H](CCCNC(=N)N)NC(=O)c1ccc2c(c1)C(=O)OC21c2ccc(O)cc2Oc2cc(O)ccc21)[C@@H](C)CC)[C@@H](C)CC)C(=O)NCC(=O)N[C@@H](CC(=O)O)C(=O)N[C@@H](CCC(=O)O)C(=O)N[C@@H](Cc1ccccc1)C(=O)N[C@@H](CC(N)=O)C(=O)N[C@@H](C)C(=O)N[C@@H](Cc1ccc(O)cc1)C(=O)N[C@@H](Cc1ccc(O)cc1)C(=O)N[C@@H](C)C(=O)N[C@@H](CCCNC(=N)N)C(N)=O
